Assay results pooled from the literature.
Lines come from different studies, so protocols differ. ± marks the error that the study gave.

With `O=C(O)CCC(CP(=O)(O)O)C(=O)O` (centres unmarked) the measured concentration was 4.27 ± 0.048 µg/mL (rat, processed derivatized plasma; 4 µg/mL, 18 h, 10 °C, autosampler stability).
The abdominal pain of `CCN1[C@@H](C(=O)NC23CCC(C(=O)O)(CC2)CC3)[C@H](c2cccc(Cl)c2F)[C@]2(C(=O)Nc3cc(Cl)ccc32)C12CCCCC2` is reported as 4.8% (advanced solid tumour patients; oral, dose not given).
The hypotension incidence of `COc1ccc([C@@H](O)c2cc(-c3ncnc4cc(N5CCOCC5)ccc34)c(F)cc2Cl)nn1` is reported as 1% (patients, advanced solid tumours; oral, 200 mg twice daily, treatment-emergent, together with: avelumab).
For `CCC[C@@](N)(CO)CCc1ccc(OCCCCCC(C)C)cc1`, the AUC(0-72 h) was 16 µM·h (dog, male hounds, plasma; oral capsule, 15 mg/kg, geometric mean).
Under “median placental accumulation”, `CCCC1CCC(C2CCC(c3ccc(F)c(F)c3)CC2)CC1` (centres unmarked) is recorded as 356 ng/g (rat, placenta; 5000 ng/mL in perfusate, high dose, mixture of 21 LCMs).
`Cc1cc(C)c(CNC(=O)c2cc(Cl)c3c(c2C)O[C@@](C)([C@H]2CC[C@H](N(C)C)CC2)O3)c(=O)[nH]1` has an Arthralgia incidence of 0% (human, relapsed/refractory NHL; concentration not given, all TEAEs, grade 5).
For `CN1CC[C@@H](c2c(O)cc(O)c3c(=O)cc(-c4ccc(C(F)(F)F)cc4Cl)oc23)[C@@H]1CO`, “patients with adverse event” read 0% (measured: Leukopenia; relapsed B-cell malignancies or AML; oral, 50 mg, grade 3-4, continuous dosing).
The drug concentration of `COc1ncccc1-c1cnn2ccc(N3CCN(C(=O)OC(C)C)CC3)nc12` is reported as 5.6 µM (mouse nerve ligation model, brain; oral, 10 mg/kg, 120 min after last dose, repeat dosing day 4).
With `Cn1c(=O)c2c(ncn2C)n(C)c1=O` the membrane retention was 11.4% (PAMPA; 200 µM, 5 h, pH 7.4).
With `CC[C@H](C)[C@H](NC(=O)[C@H](C)NC(=O)[C@H](CCCCN)NC(=O)[C@H](CC(C)C)NC(=O)[C@H](C)NC(=O)[C@@H](NC(=O)[C@H](Cc1c[nH]cn1)NC(=O)[C@H](CC(C)C)NC(=O)[C@@H](NC(=O)[C@@H](NC(=O)[C@H](CCCCN)NC(=O)[C@H](C)NC(=O)[C@H](C)NC(=O)[C@H](CO)NC(=O)[C@H](CCCCN)NC(=O)[C@H](Cc1ccccc1)NC(=O)[C@@H](NC(=O)[C@H](CCCCN)NC(=O)[C@H](CC(C)C)NC(=O)[C@H](Cc1ccccc1)NC(=O)[C@H](CO)NC(=O)[C@H](CCCCN)NC(=O)[C@H](Cc1c[nH]c2ccccc12)NC(=O)[C@H](CCCCN)NC(C)=O)[C@@H](C)O)[C@@H](C)O)C(C)C)[C@@H](C)O)C(=O)N[C@@H](CO)C(=O)N[C@@H](CO)C(N)=O` the MTD was > 200 mg/pig (minipig; topical on skin, 30 days).
Under “total bile acids”, `Nc1ncnc2c1ncn2[C@@H]1O[C@@H]2COP(=O)([S-])O[C@@H]3[C@H](O)[C@@H](COP([O-])(=S)O[C@H]2[C@H]1O)O[C@H]3n1cnc2c(N)ncnc21.[Na+].[Na+]` (some centres unmarked) is recorded as 7.69 ± 1.33 µmol/L (non-tumor-bearing mice, serum; intravenous, 1 mg/kg, toxicity study).
`C[C@@H](NC(=O)N1C(=O)[C@H](Cc2ccnc(N)c2)[C@H]1C(=O)O)C1CCCCC1`: “incidence of elevated neutrophil” 0% (healthy adult Chinese volunteers; continuous intravenous infusion, 1.5 mg/kg/h, 5-day infusion, CTCAE 5.0 grading).
`COc1cc(C=CC(=O)C=Cc2cc(OC)c(OC)c(OC)c2)cc(OC)c1OC`: apoptosis “no effect” (acridine orange staining; zebrafish (Danio rerio) larvae; up to 25 µM, larvae at 96 hpf).
For `Clc1ccc(-c2ccccc2)cc1`, the gamma-glutamyltransferase was 0 U/L (Sprague-Dawley rats, female, serum; inhalation, 23 µg/rat, 0 h after exposure).
`O=C(Nc1ccccc1)C1CCN(C(=O)Oc2cccnc2)CC1` — result for “adverse event Asthenia”: 0% (healthy women; oral, 20 mg, 7 days).
`C=CC(=O)N[C@H]1C=C(C)c2c(-c3cnc4ccccc4c3)c3c(N)ncnc3n2C1` gave an intercompartmental clearance of 0.455 L/h (two-compartment PK model; mouse, plasma; oral).
For `C[C@]1(CO)Cc2ncn(-c3ccc(C#N)c(Cl)c3)c2C(=O)O1`, “subjects with drug-related TEAE” read 20.8% (healthy Chinese subjects; dose not given, single dose, all doses).
`[O-][S+]1CCc2nc(N3CCC(c4ncc(Cl)cn4)CC3)nc(NC3(CO)CCC3)c21` (centres unmarked): “adverse event incidence” 8.3% (measured: Dizziness; healthy male humans; single dose, all groups).
`CC(=O)NCC(=O)NCC(=O)N[C@H](C(=O)N[C@@H](Cc1ccc(O)cc1)C(=O)N[C@@H](CO)C(=O)N[C@H]1CSSC[C@@H](C(=O)N[C@@H](CCCNC(=N)N)C(=O)N2CCC[C@H]2C(=O)N[C@@H](CCC(N)=O)C(=O)N[C@@H](CCCNC(=N)N)C(=O)NCC(=O)NCCC(=O)N[C@@H](CCCCNC(=O)CN(CC(=O)NCCCC[C@H](NC(=O)CCNC(=O)CNC(=O)[C@H](CCCNC(=N)N)NC(=O)[C@H](CCC(N)=O)NC(=O)[C@@H]2CCCN2C(=O)[C@H](CCCNC(=N)N)NC(=O)[C@@H]2CSSC[C@H](NC(=O)[C@H](CO)NC(=O)[C@H](Cc3ccc(O)cc3)NC(=O)[C@@H](NC(=O)CNC(=O)CNC(C)=O)[C@@H](C)O)C(=O)N[C@@H](Cc3c[nH]cn3)C(=O)N[C@@H](Cc3ccccc3)C(=O)NCC(=O)N[C@@H](C)C(=O)N[C@@H](CC(C)C)C(=O)N[C@@H]([C@@H](C)O)C(=O)N[C@@H](Cc3c[nH]c4ccccc34)C(=O)N[C@@H](C(C)C)C(=O)N2)C(N)=O)C(=O)CCN)C(N)=O)NC(=O)[C@H](C(C)C)NC(=O)[C@H](Cc2c[nH]c3ccccc23)NC(=O)[C@H]([C@@H](C)O)NC(=O)[C@H](CC(C)C)NC(=O)[C@H](C)NC(=O)CNC(=O)[C@H](Cc2ccccc2)NC(=O)[C@H](Cc2c[nH]cn2)NC1=O)[C@@H](C)O`: serum concentration “not detected” (MSD immunoassay; BALB/c mice, healthy female, serum; subcutaneous, 0.08 mg/kg, 72 h, LLOQ 2.0 ng/mL).
For `CC(=O)c1c(C)c2cnc(Nc3ccc(C4CCN(CCS(C)(=O)=O)CC4)cn3)nc2n(C2CCCC2)c1=O`, the lethal dose was 180 mg/kg/day (Sprague-Dawley rat male and female; oral gavage twice daily, 4 weeks).
`CC(C)(c1ccc(O)cc1)c1ccc(O)cc1` — result for “dose fraction in permeate”: 19% (ultrafiltration; cow milk whey; 2000 nM nominal in whole milk).
Under “grade 1 or 2 Proteinuria”, `COc1cc2c(Oc3ccc4[nH]c(C)cc4c3F)ccnc2cc1OCC1(N)CC1` is recorded as 14.7% (paediatric recurrent refractory sarcoma; concentration not given, whole group).
`CCN(CC)CCCC[C@H](NC(=O)[C@H](CC(C)C)NC(=O)[C@H](C)NC(=O)[C@H](Cc1ccccc1)NC(=O)c1ccc(C(C)(C)C)cc1)C(=O)N[C@@H](CO)C(=O)OC` gave a plasma concentration of 580 ng/mL (male Swiss Albino mice, plasma; intraperitoneal, 10 mg/kg, 2 h).
`CCCCCCCCCCCCCCCC(=O)N[C@@H](CCC(=O)NCCCC[C@H](NC(=O)[C@H](CC(=O)O)NC(=O)[C@H](CO)NC(=O)[C@@H](NC(=O)[C@H](Cc1ccccc1)NC(=O)[C@@H](NC(=O)CNC(=O)[C@H](CCC(N)=O)NC(=O)[C@H](CO)NC(=O)[C@@H](N)Cc1c[nH]cn1)[C@@H](C)O)[C@@H](C)O)C(=O)N[C@@H](CO)C(=O)N[C@@H](CCC(=O)O)C(=O)N[C@@H](Cc1ccc(O)cc1)C(=O)N[C@@H](CC(C)C)C(=O)N[C@@H](CC(=O)O)C(=O)N[C@@H](CO)C(=O)N[C@@H](CCC(=O)O)C(=O)N[C@@H](CCCNC(=N)N)C(=O)N[C@@H](C)C(=O)N[C@@H](CCCNC(=N)N)C(=O)N[C@@H](CC(=O)O)C(=O)N[C@@H](Cc1ccccc1)C(=O)N[C@H](C(=O)N[C@@H](C)C(=O)N[C@@H](Cc1c[nH]c2ccccc12)C(=O)N[C@@H](CC(C)C)C(=O)N[C@@H](CCC(=O)O)C(=O)N[C@@H](C)C(=O)NCC(=O)NCC(=O)O)C(C)C)C(=O)O` gave an abdominal distension of 0% (human, CrCl ≥20 to <30 mL/min; sc, 100 µg single dose).
`CO[C@H]1C[C@@H]2CC[C@@H](C)[C@@](O)(O2)C(=O)C(=O)N2CCCC[C@H]2C(=O)O[C@H]([C@H](C)C[C@@H]2CC[C@@H](OC(=O)NCCOCCOCCOCCOCCOCCOCCOCCOCCC(=O)N3CCc4cc(Cn5nc(-c6ccc7oc(N)nc7c6)c6c(N)ncnc65)ccc4C3)[C@H](OC)C2)C[C@@H](O)[C@H](C)/C=C(\C)[C@@H](O)[C@@H](OC)C(=O)[C@H](C)C[C@H](C)/C=C/C=C/C=C/1C` — result for “dose-reducing adverse events”: 0% (phase 1 dose escalation, measured: gastric haemorrhage; advanced solid tumour patients; intravenous, 12 mg weekly, any grade).
Under “daily dermal uptake, percentile”, `CC(C)(c1ccccc1)c1cc(-n2nc3ccccc3n2)c(O)c(C(C)(C)c2ccccc2)c1` is recorded as 74.2 ng/kg body weight/day (exposure assessment; human, age 3-6 years; concentration not given, spray sunscreen, 95th percentile).

Repeated from above:
`CCN(CC)CCCC[C@H](NC(=O)[C@H](CC(C)C)NC(=O)[C@H](C)NC(=O)[C@H](Cc1ccccc1)NC(=O)c1ccc(C(C)(C)C)cc1)C(=O)N[C@@H](CO)C(=O)OC` gave a plasma concentration of 580 ng/mL (male Swiss Albino mice, plasma; intraperitoneal, 10 mg/kg, 2 h).
Under “grade 1 or 2 Proteinuria”, `COc1cc2c(Oc3ccc4[nH]c(C)cc4c3F)ccnc2cc1OCC1(N)CC1` is recorded as 14.7% (paediatric recurrent refractory sarcoma; concentration not given, whole group).
`[O-][S+]1CCc2nc(N3CCC(c4ncc(Cl)cn4)CC3)nc(NC3(CO)CCC3)c21` (centres unmarked): “adverse event incidence” 8.3% (measured: Dizziness; healthy male humans; single dose, all groups).
